# Results from different studies.
# Compare with care: the assays were run in different laboratories. Several values in a cell are separate wells, animals, samples, runs or records. Numbers after ± are the reported error.
# Ugcg: Ceramide glucosyltransferase (Ugcg, Mus musculus, UniProt O88693)
# Chain of UniProt O88693 (whole entry, looked up): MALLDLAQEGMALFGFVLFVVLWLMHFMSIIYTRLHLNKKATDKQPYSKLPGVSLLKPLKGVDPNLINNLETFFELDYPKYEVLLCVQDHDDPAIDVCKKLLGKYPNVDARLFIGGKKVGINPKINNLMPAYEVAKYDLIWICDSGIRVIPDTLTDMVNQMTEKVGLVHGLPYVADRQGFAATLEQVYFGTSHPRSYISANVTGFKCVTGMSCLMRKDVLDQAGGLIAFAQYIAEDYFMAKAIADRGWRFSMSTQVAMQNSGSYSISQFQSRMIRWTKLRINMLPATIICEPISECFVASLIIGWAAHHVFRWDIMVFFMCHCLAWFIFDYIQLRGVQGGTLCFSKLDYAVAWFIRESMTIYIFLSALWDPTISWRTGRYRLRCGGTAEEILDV
SMILES,target or system,test,test system,setting,how to read,measurement,result
CCC1=[N+]2N=C(/C=C/C=C/c3ccc(C(F)(F)F)cc3)C(=O)O[B-]2(c2ccccc2)Oc2cc(N(CC)CC)ccc21 (centres unmarked),,,toluene,,,fluorescence emission maximum,550 nm
Nc1ncc(-c2ccc([C@H]3[C@@H](F)[C@@H](F)C[C@@H](F)[C@H]3F)cc2)cn1,,liver microsome stability,mouse liver microsomes,1 µM,,hepatic clearance,15 mL/min/kg
[123I]c1ccc2nc(-c3ccc(-n4ccnn4)nc3)cn2c1,,,"male Wistar rat, pancreas","intravenous, 4 MBq, 30 min",,tracer uptake,0.276 %ID/g
OC[C@@H]1[C@@H](O)[C@H](O)[C@@H](O)CN1CCCCCCC12CC3CC(CC(C3)C1)C2,Ugcg,"enzyme activity, inhibitor, fluorescence",,,,IC50,40 µM
O=C(CCC(F)(F)F)Nc1ccc(C2CCCCC2)cc1,,liver microsome stability,mouse liver microsomes,1 µM,,hepatic clearance,84 mL/min/kg
Cc1cc(C)n(CCN(CCN)CCCCCCNC(=O)[C@@H](N)Cc2c[nH]cn2)n1.[99Tc+].[C-]#[O+].[C-]#[O+].[C-]#[O+],,,BALB/c nude mice MCF7 xenograft,"intravenous, 4 h",,excretion,52.5 ± 2.48 % injected activity
Cc1nn(-c2nc3c(F)cc(F)cc3s2)c(O)c1C(c1ccc(C(F)(F)F)cc1)c1c(C)nn(-c2nc3c(F)cc(F)cc3s2)c1O,,,"ICR mouse, plasma","oral, 50 mg/kg",,AUC extrapolated observed,0.662% and 6.42% and 0.257%
N#Cc1cccc(-c2ccc([C@H]3[C@@H](F)[C@@H](F)C[C@@H](F)[C@H]3F)cc2)c1,,liver microsome stability,cynomolgus liver microsomes,1 µM,,hepatic clearance,4.9 mL/min/kg
CC1(C)CCC(CN2CCN(c3ccc(C(=O)NS(=O)(=O)c4ccc(NCC5COCCO5)c([N+](=O)[O-])c4)c(N4CCCOc5nc6[nH]ccc6cc54)c3)CC2)=C(c2ccc(Cl)cc2)C1 (centres unmarked),,,"male beagle dog, plasma","oral, 25 mg/kg, single dose",,AUC(0-t),130 µg·h/mL
CN1CCC[C@]1(C)/C=C/S(=O)(=O)NC(=O)Nc1c2c(cc3c1CCC3)CCC2,,"refers to: blood triglycerides increased, not related",human,"oral, 50 mg twice daily, 14 days, multiple ascending dose",,subjects with adverse event,0%
O=C(Nc1ccc(C2CCCCC2)cc1)C1CC1,,liver microsome stability,mouse liver microsomes,1 µM,,hepatic clearance,79 mL/min/kg
CCC(CC)n1c(Cc2ccco2)nc2cc(C(=O)N[C@@H](CC(=O)O)c3ccccc3)ccc21,,,"male Sprague-Dawley rat, plasma","intravenous, 1 mg/kg",,MRT(0-inf),1.51 h
COc1cccc(OC)c1-c1cc(C(=O)NC2(C(=O)O)C3CC4CC(C3)CC2C4)nn1-c1ccc(C(=O)N(C)CCCN(C)CCCN(C)C(=O)[C@H](CCCCNC(=O)[C@H](CC(C)C)NC(=O)C2OC2C(=O)O)NC(=O)CN2CCN(CC(=O)[O-])CCN(CC(=O)[O-])CCN(CC(=O)[O-])CC2)cc1C(C)C.[177Lu+3] (mixture of isomers),,,"mouse, HT-29 xenograft","72 h post injection, biodistribution",relative to: tumour over kidney uptake,tumour-to-kidney ratio,1.41
O=C(CCC(F)(F)F)Nc1ccc([C@H]2[C@@H](F)[C@@H](F)C[C@@H](F)[C@H]2F)cc1,,hepatocyte stability,cryopreserved rat hepatocytes,1 µM,,hepatic clearance,25 mL/min/kg
OCCn1nc(-c2ccccc2)c2c(Cl)c(-c3ccccc3)nnc21,,,"mouse juvenile P6, plasma","intraperitoneal, 15 mg/kg",,AUC,8.55 µM·h
C=C(NC(=O)c1csc(-c2nc3c(cc2O)-c2nc(cs2)C(=O)NC(C(C)O)C(=O)NC(=C(C)OC)c2nc(cs2)C(=O)NC2c4nc(cs4)C(=O)NC(COC(=O)c4c5c6c(cccc6n4O)COC(=O)C(OC4CC(C)(O)C(N(C)C)C(C)O4)C2OC5)c2nc-3cs2)n1)C(N)=O (centres unmarked),,,"cynomolgus monkey, female, plasma","intravenous infusion, 1.5 mg/kg twice daily, 0 to 30 h",,Cmax,16900 ng/mL
CC[C@H](C)[C@@H]1NC(=O)[C@H](Cc2ccc(O)cc2)NC(=O)CCCSC[C@@H](C(=O)N(CC(=O)N[C@@H](CC(C)C)C(=O)NCC(N)=O)Cc2ccc(F)cc2)NC(=O)[C@H](CC(N)=O)NC(=O)[C@H](CCC(N)=O)NC1=O,,,human,"intranasal, 50 µg single dose",,AE leading to discontinuation,0%
N#Cc1cccc(N2CN(CC(=O)NCC(F)(F)F)C(=O)C23CCN(C(=O)c2cnc4[nH]ncc4c2)CC3)c1,,,mouse liver microsomes,,,CLint,37 µL/min/mg protein
Cc1nc(N)nc2c1C(=O)N[C@@H](c1ccc(F)cc1-c1cccc(O[11CH3])n1)C2,,ex vivo biodistribution,"healthy mice, muscle","60 min post-injection, baseline, vehicle pre-treatment",,SUV,0.6 ± 0.1
OC[C@@H]1[C@@H](O)[C@H](O)[C@@H](O)CN1CCCCCOCc1ccc(-c2ccc(Br)cc2)cc1,Ugcg,"enzyme activity, inhibitor, fluorescence",,,,IC50,0.33 µM

# Some of these lines once more:
SMILES,target or system,test,test system,setting,how to read,measurement,result
OC[C@@H]1[C@@H](O)[C@H](O)[C@@H](O)CN1CCCCCCC12CC3CC(CC(C3)C1)C2,Ugcg,"enzyme activity, inhibitor, fluorescence",,,,IC50,40 µM
O=C(CCC(F)(F)F)Nc1ccc(C2CCCCC2)cc1,,liver microsome stability,mouse liver microsomes,1 µM,,hepatic clearance,84 mL/min/kg
